Published values of several laboratories.
Each line is one published result; not all experiments were run side by side. “And” joins repeats or separate records; there may be more than shown. Numbers after ± are the reported error. Converted amounts (≈) assume the structure as drawn.

Structure (SMILES)	target or system	test	test system	conditions	how to read	endpoint	value
CN(C)c1nc(NCc2ccccc2F)c(/N=N/c2ccc(Cl)cc2)c(N(C)C)n1	Ostrinia furnacalis	leaf dipping		50 mg/L, 96 h		mortality	70.7 ± 5.8%
CN(C)c1cccc(-c2ccc3ncnc(Nc4ccc(OCc5cccc(F)c5)c(Cl)c4)c3c2)c1	Trypanosoma cruzi	intracellular amastigote growth	NIH 3T3, Tulahuen, β-galactosidase-expressing	10 µM, 96 h		inhibition	58%
CC(C)[C@@H]1NC(=O)[C@@H](Cc2ccccc2)NC(=O)[C@@H](C(C)C)NC(=O)[C@@H](C)NC(=O)[C@H](CO)NC(=O)[C@@H](Cc2c(-c3ccc(-c4ccc5ccccc5c4)cc3)[nH]c3ccccc23)NC(=O)[C@@H](CO)NC1=O	Mycobacterium marinum					MIC90	> 100 µM
N=C(N)NCCC[C@H](NC(=O)[C@H](CCCNC(=N)N)NC(=O)[C@H](CCCNC(=N)N)NC(=O)[C@H](CCC(N)=O)NC(=O)[C@H](CCCNC(=N)N)NC(=O)[C@H](CCCNC(=N)N)NC(=O)[C@H](CCCCN)NC(=O)[C@H](CCCCN)NC(=O)[C@H](CCCNC(=N)N)NC(=O)CNC(=O)[C@H](Cc1ccc(O)cc1)NC(=O)[C@H](Cc1ccccc1)NC(=O)[C@H](Cc1ccccc1)NC(=O)[C@H](Cc1ccccc1)NC(=O)Cc1ccc2ccccc2c1)C(=O)O	Gram-positive bacteria			seven strains		geometric mean MIC	4.42 µM
Nc1nc(Nc2ccc(Cl)cc2)nn1S(=O)(=O)c1ccc2ccccc2c1	Mayaro virus	viral replication	Vero 76, BeAr 505411			EC50	> 25000 nM
CC[C@H](C)CCCCC(=O)N[C@@H](CCN)C(=O)N[C@H](C(=O)N[C@@H](CCN)C(=O)N[C@H]1CCNC(=O)[C@H]([C@@H](C)O)NC(=O)[C@H](CCN)NC(=O)[C@H](CCN)NC(=O)[C@H](CC(C)C)NC(=O)[C@@H](CC(C)C)NC(=O)[C@H](CCN)NC1=O)[C@@H](C)O	Escherichia coli	daily serial passaging	ATCC 8739	highest sub-MIC, 32 days	reference: initial MIC	MIC fold change	1.95
COC(=O)C1=CO[C@@H](C)[C@@H]2Cn3ccc4c5ccccc5nc-4c3C[C@H]12	Plasmodium falciparum	growth, [3H]-hypoxanthine uptake	FCR3	96 h	reference: FCR3 IC50 over 3D7 IC50	resistance index	1.4
O=C1NC2(CC2)COc2ncc(F)cc2[C@H]2COCCN2c2ccn3ncc1c3n2			Sprague-Dawley rat, male, testes	oral, 20 mg/kg/day, 4 weeks dosing, end of recovery		organ-to-body weight ratio	0.745 ± 0.068%
NCCCO.O=C(O)C(Cl)Cl	Solanum nigrum	herbicidal activity		15 mg/mL, 21 days, pre-emergence greenhouse		inhibition	0%
CC[C@H](C)[C@@H]1NC(=O)[C@H](CO)NC(=O)CC(CCCCN)NC(=O)[C@@H]2CSSC[C@@H](C(=O)N[C@@H](Cc3ccc(O)cc3)C(N)=O)NC(=O)[C@H](CCCCN)NC(=O)[C@@H]3CSSC[C@H](NC(=O)[C@H](CCCNC(=N)N)NC(=O)CC(CC(C)C)NC(=O)[C@H](CC(=O)O)NC(=O)[C@H](CC(=O)O)NC(=O)[C@H](CCC(=O)O)NC(=O)[C@H](CC(N)=O)NC(=O)[C@H](Cc4c[nH]c5ccccc45)NC(=O)[C@@H]4CCCN4C(=O)CNC(=O)[C@H](CC(N)=O)NC(=O)[C@@H](NC(=O)CNC(=O)[C@H](Cc4ccccc4)NC(=O)CN)CSSC[C@H](NC(=O)[C@H](Cc4ccc(O)cc4)NC(=O)CNC(=O)CNC(=O)[C@H](CCCCN)NC(=O)[C@H](Cc4ccc(O)cc4)NC(=O)CNC(=O)[C@H](CCCCN)NC1=O)C(=O)N[C@@H](C)C(=O)N[C@@H](CCCCN)C(=O)NCC(=O)NCC(=O)N[C@@H](Cc1ccccc1)C(=O)N[C@@H](C(C)C)C(=O)N3)C(=O)N[C@@H](Cc1c[nH]cn1)C(=O)NC(CC(N)=O)CC(=O)N[C@@H](Cc1c[nH]cn1)C(=O)N2 (stereo partly drawn)	Streptococcus pneumoniae		BS-444	24 h, 37 °C, 99.9% killing		MBC	4 µM
COc1ccc(-c2[nH]c3ccccc3c2C[C@H]2NC(=O)[C@@H](CO)NC(=O)[C@@H](C(C)C)NC(=O)[C@H](Cc3ccccc3)NC(=O)[C@@H](C(C)C)NC(=O)[C@@H](C)NC(=O)[C@H](CO)NC2=O)c(OC)c1	Mycobacterium marinum					MIC90	60 µM (≈ 54.8 µg/mL)
C=CCN1C(=O)C(CC=C)(C(=O)OCC)Oc2cc(F)ccc21 (stereo not drawn)	Rhizoctonia solani	microbial growth		200 µg/mL		inhibition	> 50%
CCOC(=O)/C=C/[C@H](C[C@@H]1CCNC1=O)NC(=O)[C@@H](CC(=O)[C@@H](NC(=O)c1cc(C)on1)C(C)C)Cc1ccc(F)cc1	Rhinovirus A	viral replication, high-content imaging	HeLa-CDHR3 C529Y, RV-A16	3 dpi		IC50	4 nM
Fc1cccc(COc2ccc(Nc3ncnc4ccc(-c5ccc(N6CCOCC6)cc5)cc34)cc2Cl)c1	Trypanosoma cruzi	intracellular amastigote growth, β-galactosidase CPRG	3T3, Tulahuen, β-galactosidase-expressing	10 µM, 96 h		inhibition	10%
Brc1ccc(CCNC2CCCc3c2[nH]c2ccc(C4CCCCC4)cc32)cc1 (stereo not drawn)	Streptococcus pneumoniae			concentration not given, 10% fetal bovine serum	reference: without serum	MIC fold change	4
CN(C)c1nc(NCc2ccc(F)cc2F)c(/N=N/c2ccc(Cl)cc2)c(N(C)C)n1	Ostrinia furnacalis	leaf dipping		200 mg/L, 96 h		mortality	85 ± 7.1%
CCC1(CC)CC(=O)N(C2c3cc(C(=O)NC4c5ccccc5CC4O)ccc3OC2(C)COC)C(=N)N1 (stereo not drawn)	Plasmodium falciparum	parasite growth	K1			EC50	0.4 ± 0.2 nM
CCC(=O)OCCSCCC(=O)N[C@H](CCN)C(=O)N[C@@H](CCN)C(=O)N[C@@H](CCN)C(=O)N[C@@H](CC(C)C)C(=O)N[C@H](Cc1ccccc1)C(=O)N[C@@H](CCN)C(=O)N[C@@H](CCN)C(=O)N[C@@H](CC(C)C)C(N)=O	Acinetobacter calcoaceticus	BHI agar spot plating		24 h, 37 °C		MBC	> 128 µM
CC[C@H](C)[C@H](NC(=O)[C@H](Cc1ccccc1)NC(=O)[C@H](CCCCN)NC(=O)[C@H](CCCCN)NC(=O)CNC(=O)[C@H](C)NC(=O)[C@H](CC(N)=O)NC(=O)[C@H](CCCCN)NC(=O)[C@H](Cc1ccccc1)NC(=O)[C@H](CC(N)=O)NC(=O)[C@H](CCC(=O)O)NC(=O)[C@H](Cc1c[nH]c2ccccc12)NC(=O)[C@H](CC(C)C)NC(=O)[C@@H](N)CO)C(=O)N[C@@H](CC(C)C)C(=O)N[C@@H](CC(N)=O)C(=O)N[C@H](C(=O)N[C@@H](CC(C)C)C(=O)N[C@@H](CC(=O)O)C(=O)N[C@@H](CCCCN)C(N)=O)[C@@H](C)CC	Gram-positive bacteria					geometric mean MIC	20.2 µM
CC[C@H](C)[C@H](NC(=O)[C@H](CCCCN)NC(=O)[C@H](CCCCN)NC(=O)[C@H](Cc1ccccc1)NC(=O)[C@H](Cc1ccccc1)NC(=O)[C@H](CCCCN)NC(=O)[C@H](CCCCN)NC(=O)[C@H](Cc1ccccc1)NC(=O)[C@H](CCCNC(=N)N)NC(=O)[C@@H](N)CCCCN)C(=O)N[C@@H](CCCCN)C(=O)N[C@@H](CCCCN)C(=O)N[C@@H](CO)C(=O)N[C@H](C(=O)N[C@@H](CCCCN)C(=O)N[C@@H](CCCCN)C(=O)N[C@@H](CCCNC(=N)N)C(=O)N[C@H](C(=O)N[C@@H](CCCCN)C(=O)N[C@@H](CCCCN)C(=O)N[C@@H](CC(C)C)C(=O)N[C@@H](Cc1ccccc1)C(=O)N[C@@H](CCCCN)C(=O)N[C@@H](CCCCN)C(=O)N1CCC[C@H]1C(=O)N[C@@H](CCCNC(=N)N)C(=O)N[C@H](C(=O)N[C@H](C(=O)N1CCC[C@H]1C(=O)N[C@H](C(=O)N[C@@H](CO)C(=O)N[C@H](C(=O)N1CCC[C@H]1C(=O)N[C@@H](Cc1ccccc1)C(=O)O)[C@@H](C)CC)[C@@H](C)CC)[C@@H](C)CC)C(C)C)C(C)C)C(C)C	Streptococcus pneumoniae		ATCC 49619			MBC	64 µg/mL
Cc1cc(C(=O)Nc2nc3cccc(C)c3n2[C@H]2CCCCN(C(=O)/C=C/CN(C)C)C2)ccn1	Trypanosoma brucei brucei		2T1 CLK1 overexpressing	2.5 µM, DMSO pretreated	reference: maximum	survival	42% and 41.5% and 34.8% and 47.8%
O=S(=O)(c1ccc(-c2ccc3ncnc(Nc4ccc(OCc5cccc(F)c5)cc4)c3c2)cc1)N1CCOCC1	Trypanosoma cruzi	intracellular amastigote growth, β-galactosidase CPRG	3T3, Tulahuen, β-galactosidase-expressing	10 µM, 96 h		inhibition	10%
[O-][N+]1=C(c2ccc(Cl)cc2)C2=NCCCCN2c2ccccc21	Clostridioides difficile	microbial growth				MIC50	2 µg/mL (≈ 6.14 µM)
C#CCN1C(=O)C(CC#C)(C(=O)OCC)Oc2ccccc21 (stereo not drawn)	Rhizoctonia solani	microbial growth		50 µg/mL		inhibition	< 25%
CC[C@H](C)[C@@H]1NC(=O)[C@H](CO)NC(=O)[C@H](CCCCN)NC(=O)[C@@H]2CSSC[C@@H](C(=O)N[C@@H](Cc3ccc(O)cc3)C(N)=O)NC(=O)[C@H](CCCCN)NC(=O)[C@@H]3CSSC[C@H](NC(=O)[C@H](CCCNC(=N)N)NC(=O)[C@H](CC(C)C)NC(=O)[C@H](CC(=O)O)NC(=O)[C@H](CC(=O)O)NC(=O)[C@H](CCC(=O)O)NC(=O)[C@H](CC(N)=O)NC(=O)[C@H](Cc4c[nH]c5ccccc45)NC(=O)C(C)(CC)NC(=O)CNC(=O)[C@H](CC(N)=O)NC(=O)[C@@H](NC(=O)CNC(=O)[C@H](Cc4ccccc4)NC(=O)CN)CSSC[C@H](NC(=O)[C@H](Cc4ccc(O)cc4)NC(=O)CNC(=O)CNC(=O)[C@H](CCCCN)NC(=O)[C@H](Cc4ccc(O)cc4)NC(=O)[C@H]4CCCN4C(=O)[C@@H]4CCCN4C1=O)C(=O)N[C@@H](C)C(=O)N[C@@H](CCCCN)C(=O)N1CCC[C@@H]1C(=O)NCC(=O)N[C@@H](Cc1ccccc1)C(=O)N[C@@H](C(C)C)C(=O)N3)C(=O)N[C@@H](Cc1c[nH]cn1)C(=O)N[C@@H](CC(N)=O)C(=O)N[C@@H](Cc1c[nH]cn1)C(=O)N2 (stereo partly drawn)	Streptococcus pneumoniae		BS-442	24 h		MBC	1 µM
O=C(Oc1cc(OC(=O)c2cc(O)c(O)c(O)c2)c2ccccc2c1)c1cc(O)c(O)c(O)c1	Herpes simplex virus 2	viral replication, RT-qPCR	BEAS-2B, acyclovir-resistant			IC50	1830 ± 60 nM
CC(C)[C@H]1NC(=O)[C@H](Cc2ccccc2)NC(=O)[C@@H](C(C)C)NC(=O)[C@@H](Cc2c[nH]c3ccccc23)NC(=O)[C@H](CO)NC(=O)[C@@H](Cc2c(-c3ccc(-c4ccc5ccccc5c4)cc3)[nH]c3ccccc23)NC(=O)[C@@H](CO)NC1=O	Mycobacterium marinum					MIC90	50 µM (≈ 54.7 µg/mL)
Cc1cc(Cl)cc([S+](C)[O-])c1NC(=O)c1cc(Br)nn1-c1ncccc1Cl (stereo not drawn)	Spodoptera litura	leaf-dip	third instar larvae	50 ppm, 24 h		mortality	3.3%
CC(C)[C@H]1NC(=O)[C@H](Cc2ccc(O)cc2)NC(=O)[C@@H](C(C)C)NC(=O)[C@@H](C)NC(=O)[C@H](C)NC(=O)[C@@H](Cc2c(-c3ccc(-c4ccc5ccccc5c4)cc3)[nH]c3ccccc23)NC(=O)[C@@H](CO)NC1=O	Mycobacterium marinum					MIC90	100 µM (≈ 97.9 µg/mL)
COc1ccc(C2=[N+]([O-])c3ccccc3N3CCN=C23)cc1	Clostridioides difficile	microbial growth				MIC50	0.25 µg/mL (≈ 0.852 µM)

Repeated from above:
Structure (SMILES)	target or system	test	test system	conditions	how to read	endpoint	value
COC(=O)C1=CO[C@@H](C)[C@@H]2Cn3ccc4c5ccccc5nc-4c3C[C@H]12	Plasmodium falciparum	growth, [3H]-hypoxanthine uptake	FCR3	96 h	reference: FCR3 IC50 over 3D7 IC50	resistance index	1.4
NCCCO.O=C(O)C(Cl)Cl	Solanum nigrum	herbicidal activity		15 mg/mL, 21 days, pre-emergence greenhouse		inhibition	0%
CC(C)[C@H]1NC(=O)[C@H](Cc2ccccc2)NC(=O)[C@@H](C(C)C)NC(=O)[C@@H](Cc2c[nH]c3ccccc23)NC(=O)[C@H](CO)NC(=O)[C@@H](Cc2c(-c3ccc(-c4ccc5ccccc5c4)cc3)[nH]c3ccccc23)NC(=O)[C@@H](CO)NC1=O	Mycobacterium marinum					MIC90	50 µM (≈ 54.7 µg/mL)
C#CCN1C(=O)C(CC#C)(C(=O)OCC)Oc2ccccc21 (stereo not drawn)	Rhizoctonia solani	microbial growth		50 µg/mL		inhibition	< 25%
O=C(Oc1cc(OC(=O)c2cc(O)c(O)c(O)c2)c2ccccc2c1)c1cc(O)c(O)c(O)c1	Herpes simplex virus 2	viral replication, RT-qPCR	BEAS-2B, acyclovir-resistant			IC50	1830 ± 60 nM
